Published values gathered from unrelated publications.
Numbered parts are unrelated; each lists some results of a single study.

Series 1
Target: Interferon regulatory factor 7, full length, phosphomimetic (IRF7, Homo sapiens, UniProt Q92985, residues 1-503, S471D/S472D/S475D/S476D/S477D/S483D/S484D/S487D)
Technique: protein-binding microarray
Molecule type: double-stranded DNA, one strand shown
Matrix: in vitro
Tested at: 2200 nM top
Notes: 60-bp whole probe
Together with: salmon DNA 0.4 mg/ml
Reference: random background probes
Direction: higher = stronger binding
Constant ends, left off below: GCCTAGCAC … GTCTTGATTCGCTTGACGCTGCTG
Construct (chain): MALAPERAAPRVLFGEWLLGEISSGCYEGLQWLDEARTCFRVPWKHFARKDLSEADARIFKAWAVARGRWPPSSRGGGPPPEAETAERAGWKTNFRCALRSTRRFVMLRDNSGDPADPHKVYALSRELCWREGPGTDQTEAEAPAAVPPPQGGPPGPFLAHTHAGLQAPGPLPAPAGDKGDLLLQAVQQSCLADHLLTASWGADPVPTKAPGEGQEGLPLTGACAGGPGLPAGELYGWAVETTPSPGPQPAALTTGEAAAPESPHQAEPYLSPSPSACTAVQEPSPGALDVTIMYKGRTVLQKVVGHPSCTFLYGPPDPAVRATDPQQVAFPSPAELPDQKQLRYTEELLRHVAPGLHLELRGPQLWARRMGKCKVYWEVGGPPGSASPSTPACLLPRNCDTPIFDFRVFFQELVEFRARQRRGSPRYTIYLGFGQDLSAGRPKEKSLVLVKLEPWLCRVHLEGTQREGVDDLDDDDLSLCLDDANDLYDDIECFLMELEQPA
`TTTGATTTCGGGTTTCGATTAGTGCTA` — result for “fitted relative affinity”: 6.81 z-score.
Under “fitted relative affinity”, `GCCGAACTGAGTCTCGAGACGTGCTAG` is recorded as 0.117 z-score.
For `TTAGGTATCGGGTTCCGGTTAGTGCTA`, “fitted relative affinity” read 1.2 z-score.
For `GGGCAGGAAACGGAGGACACGTGCTAG`, “fitted relative affinity” read -1.09 z-score.
`GACGGTCTCGGTATCGCGACGTGCTAG`: “fitted relative affinity” 0.205 z-score.
For `GACGGTATCGGGACTGGAGACGTGCTA`, “fitted relative affinity” read -0.437 z-score.
`TTAGCTTTCAGTCTCGATTAGTGCTAG`: “fitted relative affinity” 1.96 z-score.
`TCAATTTTCATTAACTGACTGTGCTAG` — result for “fitted relative affinity”: 1.07 z-score.
`TCATAAAATGGACACTGTACTGTGCTA`: “fitted relative affinity” -0.402 z-score.
`GACGGTCACGGACTGGGGACGTGCTAG` — result for “fitted relative affinity”: -1.15 z-score.
For `GACGGTATCGACTATTGGGACGTGCTA`, “fitted relative affinity” read -0.0698 z-score.

Series 2
Target: Ras GTPase-activating protein-binding protein 1, full length (G3BP1, Homo sapiens, UniProt Q13283)
Chain of UniProt Q13283 (whole entry, looked up): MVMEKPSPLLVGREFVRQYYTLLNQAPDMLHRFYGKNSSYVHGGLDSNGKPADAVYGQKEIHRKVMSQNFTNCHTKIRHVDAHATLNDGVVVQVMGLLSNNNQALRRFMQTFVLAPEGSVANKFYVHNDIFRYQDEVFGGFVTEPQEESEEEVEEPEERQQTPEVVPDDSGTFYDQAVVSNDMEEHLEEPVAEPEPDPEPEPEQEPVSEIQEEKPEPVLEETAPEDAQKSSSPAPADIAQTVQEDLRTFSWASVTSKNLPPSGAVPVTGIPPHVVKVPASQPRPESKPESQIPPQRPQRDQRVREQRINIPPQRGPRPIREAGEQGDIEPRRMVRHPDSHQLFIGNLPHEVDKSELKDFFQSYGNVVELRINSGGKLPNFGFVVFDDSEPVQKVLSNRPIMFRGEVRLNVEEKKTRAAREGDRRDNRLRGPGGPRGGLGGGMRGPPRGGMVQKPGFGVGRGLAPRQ
Technique: RNA Bind-n-Seq
Molecule type: RNA
Matrix: in vitro
Tested at: 200 nM
Notes: whole 134-nt RNA, ends assumed
Together with: 150 mM LiCl
Reference: input library
Direction: higher = stronger binding
Library: 7-deaza-guanosine replaces G
Constant ends, left off below: GGGAGUUCUACAGUCCGACGAUC … UGGAAUUCUCGGGUGUCAAGG
The log2 enrichment of `UCCUGUGCUACACAUCGUAUGUACCGAAUCGGGGUUUUUUGGGUUUUUUGGUUUUUUGGGAAAGUAUUAUGUUACGCCGUUCGGAUCUGC` is reported as 0.498.
For `AGUCCUGUGCUACACAUCGUAUGUACCGAAUCGGGGCCCCGGGCCCCGGGCCCCGGGAAAGUAUUAUGUUACGCCGUUCGGAUCUGCACU`, the log2 enrichment was -1.75.
With `CACAGUCAACACGCACCCACACAGACACAGAGGGAAGGGGUUGGGAUGGGGACAGGGUGCACAGCAGGGCGGGGUAGGACCCCAGCCCCU` the log2 enrichment was 0.282.
`CCUGUGCUACACAUCGUAUGUACCGAAUCGGGGUUUUUUUGGGGAAAGGGGAAAAAGGGGAAAGUAUUAUGUUACGCCGUUCGGAUCUGC` has a log2 enrichment of 0.428.
With `GUCCUGUGCUACACAUCGUAUGUACCGAAUCGGGAAAGGGAAAAAGGGUUUUUUUGGGAAAGUAUUAUGUUACGCCGUUCGGAUCUGCAC` the log2 enrichment was -0.631.
The log2 enrichment of `CUCAAGUCCUGUGCUACACAUCGUAUGUACCGAAUCGGGGCCGGCCGGCCGGGGAAAGUAUUAUGUUACGCCGUUCGGAUCUGCACUUCC` is reported as 0.738.
`UGCUUCUGAGUUGCCCAGGAGACCACUGGCAGAUGUCCCGGCGAAGAGAAGAGACACAUUGUUGGAAGAAGCAGCCCAUGACAGCUCCCC` has a log2 enrichment of 0.911.

Series 3
Target: Protein max, full length (MAX, Homo sapiens, UniProt P61244-2, residues 1-151)
Technique: protein-binding microarray
Molecule type: double-stranded DNA, one strand shown
Matrix: in vitro
Tested at: not given
Notes: k-mer, scored over probes, only values ≥0.25
Direction: higher = stronger binding
`ATCCCACG` gave an E-score of 0.347.
`AGTAGCAT` has an E-score of 0.258.
`ACGCTTCA` has an E-score of 0.298.
The E-score of `TCGTGCCA` is reported as 0.309.
For `GCCACGCA`, the E-score was 0.355.
`AACAGCAT` gave an E-score of 0.273.
The E-score of `CACGAGAC` is reported as 0.416.
`CATGGGTA` has an E-score of 0.32.
For `CACATGCG`, the E-score was 0.474.
For `GCACGGGA`, the E-score was 0.335.
With `ACACACGA` the E-score was 0.29.
`AATCACGT` has an E-score of 0.451.
For `ACGAGGCA`, the E-score was 0.298.

Further values, each from its own experiment
`PhoQ, residues 284 288 289 292 302 303 GTAMQF` gave a fold induction of 15.4 (PhoP, residues 12 14 15 18 19 LHATL (Escherichia coli, UniProt P23836); Sort-seq, item: YFP reporter; E. coli; PhoQ-PhoP variant library, together with: 10 µM Mg2+; reference: high Mg2+ state, higher = stronger signaling).

Repeated from above (series 3):
With `ACACACGA` the E-score was 0.29.
`AATCACGT` has an E-score of 0.451.
For `ACGAGGCA`, the E-score was 0.298.
